Experimental data collected from several papers.
Each numbered part is a random draw from the data of one study; scales do not carry over between parts.

Block 1
Target: Phosphate system positive regulatory protein PHO4, full length, GST-tagged (PHO4, Saccharomyces cerevisiae, UniProt P07270, residues 1-312)
Technique: competition protein-binding microarray
Molecule type: double-stranded DNA, one strand shown
Matrix: in vitro
Tested at: 2 µM
Notes: whole 60-bp probe, lowest competitor level
With: Cbf1 competitor, 0.05 µM
Direction: higher = stronger binding
Quantity: fluorescence intensity
All sequences stand within: … GTCTTGATTCGCTTGACGCTGCTG
Residues (chain): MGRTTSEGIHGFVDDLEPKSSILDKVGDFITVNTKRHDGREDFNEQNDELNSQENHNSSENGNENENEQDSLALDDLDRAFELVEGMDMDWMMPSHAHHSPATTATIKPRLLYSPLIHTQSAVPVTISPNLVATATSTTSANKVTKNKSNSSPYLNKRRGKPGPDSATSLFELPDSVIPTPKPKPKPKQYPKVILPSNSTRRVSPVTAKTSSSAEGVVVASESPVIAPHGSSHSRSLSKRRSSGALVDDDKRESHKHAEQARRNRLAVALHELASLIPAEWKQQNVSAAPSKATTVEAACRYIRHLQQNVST
AAATTACTAAGTTGTCATGTGGGTGACGCCGTATGA: 9330 a.u.
CTTTCATCATATTTTCATGTGTCAGAAATAACACCG: 5300 a.u.
CTAACGAAGGTTTGGAATGTGGGTGACAAGCCAAGT: 6290 a.u.
CAAGGGGGGGCCAGACACGGGCCGCTCTGGTTGGTC: 7740 a.u.
ATGTCGAAGCCGGTGCAGGTGATAGTGCTGCTTACA: 4980 a.u.
GCACAATTTTATGACCGCGTGTTTTCGAATTTTGAC: 11100 a.u.
CGTCCTAGTGATTTTCACGTGTGATCCATGAGGAAG: 12400 a.u.
AAATTACTAAGTTGATCGGTGGGTGACGCCGTATGA: 3550 a.u.
CTTTCAGAGGTGGATCTCGTGGCCGATCATTTAGAG: 9420 a.u.
TGACAGAAAACTTAGATCGTGACGGCAAATTAAACG: 7150 a.u.
GTCTTGTCTCATTGTCACTTTACTTTCCCCACTTCA: 4290 a.u.
AAATTACTAAGTTGTCACCACACTTACCCCGTATGA: 5460 a.u.
TACTTAATAATCGACCACGTTTCAAATTCAATAATG: 13200 a.u.
CGGTGGAGTATTTCACACGTTATGTCGCTGGTTTGC: 6310 a.u.

Block 2
Target: Histone acetyltransferase KAT6A, both winged helices, GST fusion (KAT6A, Homo sapiens, UniProt Q92794, residues 1-181)
Technique: protein binding microarray
Molecule type: double-stranded DNA, one strand shown
Matrix: in vitro
Tested at: not given
Notes: 8-mer, flanks averaged, mean of 2 arrays, mostly near background
Reference: not given
Direction: higher = stronger binding
Quantity: E-score
Residues (chain): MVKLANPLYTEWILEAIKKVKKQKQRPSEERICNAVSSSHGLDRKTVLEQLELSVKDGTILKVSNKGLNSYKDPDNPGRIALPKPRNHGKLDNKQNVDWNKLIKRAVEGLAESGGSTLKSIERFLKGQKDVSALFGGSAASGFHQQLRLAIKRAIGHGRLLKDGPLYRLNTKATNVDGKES
AAGGATCG: 0.0334
CCTTCACA: -0.184
ACCGAAAG: -0.0242
ACCCATCG: -0.0948
ACTCTCCC: -0.141
ACTACGGC: 0.251
CATTTCAC: -0.0764
TACCTGAA: -0.0572
GAGTGAAA: -0.259
CTCCAGGC: -0.0242
CTTTACAA: -0.0501
CCTGAAGG: -0.135
AAATACAC: -0.0458
AGCCAAAC: 0.0708
AAAACTGT: -0.105
CCGGGTAA: 0.105
CGATCTTC: 0.108
GACGTCCC: -0.0979

Block 3
Target: Sal-like protein 4, full length isoform A (SALL4, Homo sapiens, UniProt Q9UJQ4, residues 1-1053)
UniProt Q9UJQ4, sequence (whole entry, looked up): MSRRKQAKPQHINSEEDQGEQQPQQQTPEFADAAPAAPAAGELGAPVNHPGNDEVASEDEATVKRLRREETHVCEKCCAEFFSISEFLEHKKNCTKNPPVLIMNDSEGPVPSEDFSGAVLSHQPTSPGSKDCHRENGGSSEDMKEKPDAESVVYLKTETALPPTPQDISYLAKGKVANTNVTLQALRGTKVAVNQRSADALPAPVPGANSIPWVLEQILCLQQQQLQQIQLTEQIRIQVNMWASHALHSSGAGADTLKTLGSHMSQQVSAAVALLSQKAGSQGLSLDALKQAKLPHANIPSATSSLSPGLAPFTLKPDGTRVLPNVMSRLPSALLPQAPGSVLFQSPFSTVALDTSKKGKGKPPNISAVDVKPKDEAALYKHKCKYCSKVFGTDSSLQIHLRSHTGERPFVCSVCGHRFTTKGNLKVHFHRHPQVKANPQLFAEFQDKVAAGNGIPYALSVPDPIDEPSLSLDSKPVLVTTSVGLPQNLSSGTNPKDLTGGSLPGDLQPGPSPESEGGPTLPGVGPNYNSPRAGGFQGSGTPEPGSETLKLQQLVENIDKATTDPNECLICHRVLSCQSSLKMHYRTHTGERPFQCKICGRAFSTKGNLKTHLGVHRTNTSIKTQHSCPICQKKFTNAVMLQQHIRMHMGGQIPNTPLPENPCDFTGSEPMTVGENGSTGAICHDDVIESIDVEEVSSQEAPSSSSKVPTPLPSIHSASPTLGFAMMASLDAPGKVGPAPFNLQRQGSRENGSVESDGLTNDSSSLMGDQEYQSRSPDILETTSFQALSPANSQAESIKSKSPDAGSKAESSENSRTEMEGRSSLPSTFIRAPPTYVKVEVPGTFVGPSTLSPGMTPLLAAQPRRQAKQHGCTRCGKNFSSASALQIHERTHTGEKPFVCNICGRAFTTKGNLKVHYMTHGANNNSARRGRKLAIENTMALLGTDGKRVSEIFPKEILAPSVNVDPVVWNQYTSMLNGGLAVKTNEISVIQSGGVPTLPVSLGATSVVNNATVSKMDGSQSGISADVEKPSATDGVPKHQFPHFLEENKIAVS
Technique: universal PBM
Molecule type: double-stranded DNA, one strand shown
Matrix: in vitro
Tested at: 600 nM
Notes: 8-mer, flanks averaged, mean of replicates
Direction: higher = stronger binding
Quantity: E-score
ACCCAAAA: -0.056
CTCGTAGA: -0.0784
AGCCATTG: 0.0445
AAAGCGGA: 0.00601
AGCGCCGC: -0.356
CATCGCGC: -0.191
TGTGAAAA: 0.256
ATCAGACA: 0.0833
TCTCATAA: 0.323
TCGATCGA: 0.051
CTATGTCA: 0.229
GAGCGGGC: -0.379
CGTAGCTC: -0.0959
AAAGTCGT: 0.124
AGGTAAGG: -0.0216
ATTCGTAG: 0.0705
CGTATGCC: -0.16
CCTACTCC: -0.106
CCCCCTCG: -0.312

Block 4
Target: Ras GTPase-activating protein-binding protein 1, full length (G3BP1, Homo sapiens, UniProt Q13283)
UniProt Q13283, sequence (whole entry, looked up): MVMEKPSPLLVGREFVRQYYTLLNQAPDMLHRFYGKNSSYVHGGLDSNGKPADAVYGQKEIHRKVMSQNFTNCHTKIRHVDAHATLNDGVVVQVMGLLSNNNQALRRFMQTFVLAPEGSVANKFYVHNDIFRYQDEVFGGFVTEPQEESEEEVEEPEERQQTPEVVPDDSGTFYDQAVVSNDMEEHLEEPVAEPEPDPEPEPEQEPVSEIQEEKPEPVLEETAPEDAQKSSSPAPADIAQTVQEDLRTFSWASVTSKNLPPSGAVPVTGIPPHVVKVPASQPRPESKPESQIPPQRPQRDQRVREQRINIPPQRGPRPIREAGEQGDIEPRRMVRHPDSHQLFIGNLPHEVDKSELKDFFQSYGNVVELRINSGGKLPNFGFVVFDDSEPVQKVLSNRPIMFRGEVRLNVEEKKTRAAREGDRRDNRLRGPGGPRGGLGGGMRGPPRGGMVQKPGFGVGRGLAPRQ
Technique: RNA Bind-n-Seq
Molecule type: RNA
Matrix: in vitro
Tested at: 200 nM
Notes: whole 134-nt RNA, ends assumed
With: 150 mM KCl
Reference: input library
Direction: higher = stronger binding
Quantity: log2 enrichment
All sequences stand within: GGGAGUUCUACAGUCCGACGAUC … UGGAAUUCUCGGGUGUCAAGG
GUCCUGUGCUACACAUCGUAUGUACCGAAUCGGGUUUUUGGGGUUUUUGGGUUUUUGGGAAAGUAUUAUGUUACGCCGUUCGGAUCUGCA: -0.23
GCAGGAAGUAAAAACAAAUGGAAAUGCAAAGGAUAGUGGCAGGGGUGGGGGUUGCUAAGGAAAGGGUGGGAUGGGAGUGGGUAAAGAGUU: 1.09
AAGUCCUGUGCUACACAUCGUAUGUACCGAAUCGGGUUUGGGAGGGAAAAAAAGGGAAAGUAUUAUGUUACGCCGUUCGGAUCUGCACUU: -0.0958
UGGCCCUGGUGGCAUGCGGGGACGAAGAGGUGGCCUCAUGGAUCGUGGUGGUCCCGGUGGAAUGUUCAGAGGUGGCCGUGGUGGAGACAG: 0.107
UACCAAUUGGCCUUUAUUGACUGUAUCCAAAGGAUUUUUUGAAGGCACCAUUGCCAGCAAAGGUAAGUACCUAUUUCUCCCAUAGCACUU: -0.551
UAACUUUAGAGGAGGAUCUGAUGGAUAUGGCAGUGGACGUGGAUUUGGGGAUGGAUAUAAUGGGUAUGGAGGAGGACCUGGAGGUGGCAA: 0.445
CUGUGCUACACAUCGUAUGUACCGAAUCGGGCCCCCCCGGGGCCCCCCCGGCCCCCCCGGGAAAGUAUUAUGUUACGCCGUUCGGAUCUG: -0.945
GCAGGAAGUAAAAACAAAAAAAAAUGCUUCGGAUAGUGGCAGGGGUGGGGGUUGCUAAGGAAAGGGUGGGAUGGGAGUGGGUAAAGAGUU: 1.12
AGUCCUGUGCUACACAUCGUAUGUACCGAAUCGGUUUUUGGGUUUUUGGGUUUUUGGAAAGUAUUAUGUUACGCCGUUCGGAUCUGCACU: -1.16
AAGUCCUGUGCUACACAUCGUAUGUACCGAAUCGGGAAAAGGAAAAGGGGAAAAGGAAAGUAUUAUGUUACGCCGUUCGGAUCUGCACUU: -0.695
GUCCUGUGCUACACAUCGUAUGUACCGAAUCGGGGUUUGGGGAAAAAAAGGGGAGGGGAAAGUAUUAUGUUACGCCGUUCGGAUCUGCAC: 0.546
UCCUGUGCUACACAUCGUAUGUACCGAAUCGGGAAAAAGGGAAAAAGGGAAAAAAAGGGAAAGUAUUAUGUUACGCCGUUCGGAUCUGCA: -0.288
AAGUCCUGUGCUACACAUCGUAUGUACCGAAUCGGGGUUUGGGGUUUGGGGUUUGGGAAAGUAUUAUGUUACGCCGUUCGGAUCUGCACU: 0.193
GCAGGAAGUAAAAACAAAAAGAAAUGCUUCGGAUAGUGGCAGGGGUGGGGGUUGCUAAGGAAAGGGUGGGAUGGGAGUGGGUAAAGAGUU: 1.03

Block 5
Target: RNA binding protein fox-1 homolog 2, RRM domain, GST-SBP tag (RBFOX2, Homo sapiens, UniProt O43251-10, residues 100-194)
Technique: RNA Bind-n-Seq
Molecule type: RNA
Matrix: in vitro
Tested at: 365 nM
Notes: natural RNA segment, single round, ends assumed
Reference: no-protein control
Direction: higher = stronger binding
Quantity: RBNS enrichment (R)
All sequences stand within: GGGAGUUCUACAGUCCGACGAUC … UGGAAUUCUCGGGUGCCAA
Target sequence (chain): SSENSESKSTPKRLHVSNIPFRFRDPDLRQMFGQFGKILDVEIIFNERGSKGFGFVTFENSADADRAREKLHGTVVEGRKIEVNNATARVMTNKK
GAGUCCCGGCUUUUGGAGUCCCAGCACACUUGAACUUGGAUUUGCCAUUCAGUAUUAAUAGAUCAUGAUUUCACUAAUCCAUCACAUUAUAGCACCAUGAGAGCUACAGU: 0.535
GAUCUGUGCAUUUUGUGCCUUAUUCACUCGAGUGGUAGAAGUUCCGCGGUAUGUUGAGUGUUUCCACUACAGAGCAUCAUUUCCCAUGUGCCACUUGUAAAUGUUUUGCA: 0.986
AGGCAGACACUUUAGGUUGGUACUUUUAUUCUAAAAGCCUUUUUAAGGGUAAUCUUCCUUCUCUGAUUACAGGAGCUGAAAUUUGACUUUUCUAACAGGCUCAGUCCUUA: 0.272
CCAGGGACAGUGGGUUUGGAUCUGUCUAGAACAGCGGUUUGUGGCUGUGGCCCAGCUCCGAGAGUGAUAUUUGCUCUGGUAGGUGAGGGCCUGAGGGUACAUUUCUCCAC: 0.55
GUGAGAGACCAGAGGUUUUGUAUAAGUUAUUGUCCUGCUCCCUUUUCAGUUGUCUUGAAGAGCUCUUGCUACUAACUUUGGGUCCUGCUUUUCAUUUAGGUAGAUGGUAA: 1.1
AGAUCAGAAUGCCUGUUCGUGGUUUCAUAUAAUAUAUUUUUCUAAAAGCAUAGAUUGCACAGGAAGGUAUGAGUACAAAUACUGUAAUGCAUAACUUGUUAUUGUCCUAG: 3.2
CCGUGGCCCGUGGUGCAGCCGUGGCCCAUGGCAGCCUGUAGAAUCCAGGUGCACAGAGAGCCCUGCCACCGUCUUACCUCUGGGCUUUGGUGCUUAACACACAACACAGC: 0.285
GCCCUGGGGUCAAGGGAAAGGAACUCUGUUAUCUUCUCAGAAUAAAUAUUACUGCCGCUCUAGAGGGUCUGUCUGUUUCAUUUUUCCCGUACCCCGCACCCCCCCACACA: 0.7
GAAAUUAAAAGGUAUAUUCUUAAGAUAUAUUAUAUUUUGAUGCUAAUUCUGUUCUGGGGAGCAUCUUGUAUUGUCACUGUUUUGUACUAAAUCUUCAAAUAUUGUCUACU: 0.482
AAAGAGAAUGUUCUCUUACAUAUGUUAGGAAAAUAGGCACACUUUCAAAGAGAGGUAUAGGGGCUUUUUACUGCCUUCGAAAUCACUUUUAAUAAAAGUUGUAUGAUAAA: 0.307
UGUCAGCAGUCUCUGCCCUCUCGAGAGAGAUGAGCAGCCUCAACUGACGUUUCUAUUAAUGAGUUAUCAGAAGUUGCAACAUCUCUCCAGCACUAAUGUGUUUUGUCCAC: 0.228
ACCCUCGAGCUACCAGCCAGGGCUCUAAGUUGCUCUCGUGAUCUUAGUUAGAAAUACAGGCUACAGUGUUUGGUCAGAAUUUAUUCGAAUGUCUUUAUUUUUAAUACCAA: 0.586

For quick reference, copied from above (block 2):
ACCGAAAG: -0.0242
AAAACTGT: -0.105
TACCTGAA: -0.0572
AGCCAAAC: 0.0708
CCGGGTAA: 0.105
CCTGAAGG: -0.135
